Measurements collected from several papers.
± gives the spread as reported.
CNR2: Cannabinoid receptor 2 (CNR2, Homo sapiens, UniProt P34972)
Chain of UniProt P34972 (whole entry, unmodified, looked up): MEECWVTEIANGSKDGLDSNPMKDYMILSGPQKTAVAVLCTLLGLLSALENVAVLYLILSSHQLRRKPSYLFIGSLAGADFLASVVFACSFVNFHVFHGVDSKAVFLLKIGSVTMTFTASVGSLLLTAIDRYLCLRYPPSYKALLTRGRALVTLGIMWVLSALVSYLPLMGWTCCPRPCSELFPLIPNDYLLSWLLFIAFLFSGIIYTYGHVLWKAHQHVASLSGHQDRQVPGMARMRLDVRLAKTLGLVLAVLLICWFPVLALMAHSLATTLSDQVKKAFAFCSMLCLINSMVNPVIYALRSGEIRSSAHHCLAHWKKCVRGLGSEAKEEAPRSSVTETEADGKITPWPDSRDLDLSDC

SMILES	tested on	test	test system	setting	scale	endpoint	result
O=c1ccc2ccccc2o1	CNR2	agonist radioligand binding		10 µM, SafetyScreen44		inhibition	-3.14%
O=C(Nc1cccnn1)N1CCC(=Cc2cccc(Oc3ccc(C(F)(F)F)cn3)c2)CC1	CNR2	binding		10 µM, together with: [3H]WIN-55,212-2		inhibition	37%
OCCn1cc(-c2cnc3nnn(Cc4ccc5ncccc5c4)c3n2)cn1	human coronavirus OC43	virus-induced cell killing	MRC-5	maximum over 10 doses		maximum inhibition	0%
Cc1oc(-c2cccc(Cl)c2)nc1CN1CCCC(C(=O)NCCc2ccc(Cl)cc2)C1 (stereo not shown)	Vero-E6	CellTiter-Glo ATP		concentration not given, 72 h, retest 8-point duplicates	reference: DMSO 0%, hyamine -100%, more negative, more toxic	cytotoxicity efficacy	-44.3%
CCOC(=O)[C@](CC)(CCC[S+]([O-])CCOCCOCCNC(=O)OC(C)(C)C)NC(=O)c1ccc(C2CC2)c(Cc2ccc(F)cc2)n1 (stereo partly shown)	CNR2	radioligand binding			reference: CB1 over CB2 (human)	Ki ratio	11
CCC(CC)(NC(=O)c1ccc(N2CC(OC)C2)c(OC[C@H]2C[C@@H]2CO)n1)C(=O)NCCOCCOCCNC(=O)c1ccc2c(c1)C1(OC2=O)c2ccc(N(C)C)cc2[Si](C)(C)c2cc(N(C)C)ccc21	CNR2	binding			reference: CB1 Ki over CB2 Ki	selectivity ratio	> 6
CCOC(=O)C(CC)(CCCSCCOCCOCCNc1ccc([N+](=O)[O-])c2nonc12)NC(=O)c1ccc(C2CC2)c(Cc2ccc(F)cc2)n1 (racemic)	CNR2	radioligand binding			reference: CB1 over CB2 (human)	Ki ratio	17
Cc1ccc2nc(C3CCCN(Cc4cccc(-c5cccnc5)c4)C3)[nH]c(=O)c2c1 (stereo not shown)	Vero-E6	CellTiter-Glo ATP		concentration not given, 72 h, second round 5-point	reference: DMSO 0%, hyamine -100%, more negative, more toxic	cytotoxicity efficacy	0%
CCOC(=O)C(CCCOC)NC(=O)c1ccc(C2CC2)c(Cc2ccc(F)cc2)n1 (stereo not shown)	CNR2	radioligand binding			reference: CB1 over CB2 (human)	Ki ratio	6
C=CCN1CC[C@]23c4c5ccc(O)c4O[C@H]2C(=O)CC[C@]3(O)[C@H]1C5	CNR2			concentration not given		inhibition	13.1%
CN1CCN(c2cc(-c3ccncc3)c(-c3ccc4ccccc4c3)nn2)CC1	CNR2	agonist, FLIPR		12.5 µM		activation	-23.3%
C=CC(=O)Nc1cccc(Nc2nc(Nc3ccc(NC4CN(CCF)C4)cc3OC)ncc2C(F)(F)F)c1	human coronavirus OC43	virus-induced cell killing	MRC-5	screen		maximum inhibition	5.62%
O=C(Nc1cnccc1Cl)N1CCN(Cc2ccc3c(c2)OC(F)(F)O3)CC1	CNR2	binding		50 µM, together with: [3H]WIN-55,212-2		inhibition	7%
CC/C(=C(\c1ccccc1)c1ccc(OCCN(C)C)cc1)c1ccccc1	CNR2	item: cAMP	CHO-hCB2 cells	10 µM	reference: basal	adenylyl cyclase activity increase	36%
COC(=O)[C@@H](NC(=O)c1nn(Cc2ccc(F)cc2)c2ccccc12)C(C)(C)C	CNR2	GTPase			reference: compound	Gi GTP turnover maximum	101%
CN(C(=O)n1cnc(-c2ccc[n+]([O-])c2)c1)C1CCCCC1	CNR2	radioligand binding		10 µM, together with: [3H]WIN-55,212-2		inhibition	14%
CCCCCCC(C)(C)c1ccc([C@@H]2C[C@H](O)CC[C@H]2CCCO)c(O)c1	CNR2 (Homo sapiens, UniProt P34972, V261L)	cAMP inhibition, agonist, CAMYEL BRET biosensor		together with: 10 µM forskolin	reference: wild type receptor	Emax	62.7 ± 1.9%
C=CCC(CC)(NC(=O)c1ccc(C2CC2)c(Cc2ccc(F)cc2)n1)C(=O)OCC (stereo not shown)	CNR2	radioligand binding			reference: CB1 over CB2 (human)	Ki ratio	3
CNC(=O)[C@@H](NC(=O)c1cc(OCC2(C)COC2)c(C2CC2)cn1)C(C)(C)C	CNR2	binding, [3H]-CP55940 displacement			reference: CB1 Ki over CB2 Ki	selectivity ratio	147
Cc1c(C(=O)NN2CCCCC2)nn(-c2ccc(Cl)cc2Cl)c1-c1ccc(Cl)cc1	CNR2	binding	CHO, membranes	0.0005 µM, together with: [3H]CP-55,940 0.5 nM		displacement	56.5 ± 5.2%
CCOC(=O)C(CC)(CCCSC)NC(=O)c1ccc(C2CC2)c(Cc2ccc(F)cc2)n1 (stereo not shown)	CNR2	radioligand binding			reference: CB1 over CB2 (human)	Ki ratio	7
Cc1nc([C@@](C)(CC2CC2)NC(=O)c2cc(OCC(F)(F)F)c(C3CC3)cn2)no1	CNR2	binding, [3H]-CP55940 displacement			reference: CB1 Ki over CB2 Ki	selectivity ratio	44

For quick reference, copied from above:
SMILES	tested on	test	test system	setting	scale	endpoint	result
O=C(Nc1cccnn1)N1CCC(=Cc2cccc(Oc3ccc(C(F)(F)F)cn3)c2)CC1	CNR2	binding		10 µM, together with: [3H]WIN-55,212-2		inhibition	37%
Cc1ccc2nc(C3CCCN(Cc4cccc(-c5cccnc5)c4)C3)[nH]c(=O)c2c1 (stereo not shown)	Vero-E6	CellTiter-Glo ATP		concentration not given, 72 h, second round 5-point	reference: DMSO 0%, hyamine -100%, more negative, more toxic	cytotoxicity efficacy	0%
O=c1ccc2ccccc2o1	CNR2	agonist radioligand binding		10 µM, SafetyScreen44		inhibition	-3.14%
CC/C(=C(\c1ccccc1)c1ccc(OCCN(C)C)cc1)c1ccccc1	CNR2	item: cAMP	CHO-hCB2 cells	10 µM	reference: basal	adenylyl cyclase activity increase	36%
